Assay results gathered from unrelated publications.
A part holds a random share of what one study measured. “And” joins repeats or separate records; there may be more than shown.
Sequence of UniProt Q14680 (whole entry, looked up): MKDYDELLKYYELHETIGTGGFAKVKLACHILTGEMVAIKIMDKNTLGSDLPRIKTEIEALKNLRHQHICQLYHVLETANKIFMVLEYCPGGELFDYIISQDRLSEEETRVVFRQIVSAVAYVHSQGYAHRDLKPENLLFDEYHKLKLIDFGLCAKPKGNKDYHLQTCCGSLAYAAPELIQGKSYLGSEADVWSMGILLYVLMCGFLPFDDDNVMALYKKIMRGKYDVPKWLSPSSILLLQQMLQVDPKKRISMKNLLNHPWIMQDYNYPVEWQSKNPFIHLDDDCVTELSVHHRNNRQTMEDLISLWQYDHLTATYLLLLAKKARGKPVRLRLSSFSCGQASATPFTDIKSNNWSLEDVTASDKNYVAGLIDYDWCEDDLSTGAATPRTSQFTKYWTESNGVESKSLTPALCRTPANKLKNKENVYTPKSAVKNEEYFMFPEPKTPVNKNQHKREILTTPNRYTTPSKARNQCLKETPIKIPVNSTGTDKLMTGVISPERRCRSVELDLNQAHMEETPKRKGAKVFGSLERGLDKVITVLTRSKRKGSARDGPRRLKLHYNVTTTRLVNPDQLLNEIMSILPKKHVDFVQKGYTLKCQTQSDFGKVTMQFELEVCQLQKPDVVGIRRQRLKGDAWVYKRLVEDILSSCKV
Sequence of UniProt P10721 (whole entry, unmodified, looked up): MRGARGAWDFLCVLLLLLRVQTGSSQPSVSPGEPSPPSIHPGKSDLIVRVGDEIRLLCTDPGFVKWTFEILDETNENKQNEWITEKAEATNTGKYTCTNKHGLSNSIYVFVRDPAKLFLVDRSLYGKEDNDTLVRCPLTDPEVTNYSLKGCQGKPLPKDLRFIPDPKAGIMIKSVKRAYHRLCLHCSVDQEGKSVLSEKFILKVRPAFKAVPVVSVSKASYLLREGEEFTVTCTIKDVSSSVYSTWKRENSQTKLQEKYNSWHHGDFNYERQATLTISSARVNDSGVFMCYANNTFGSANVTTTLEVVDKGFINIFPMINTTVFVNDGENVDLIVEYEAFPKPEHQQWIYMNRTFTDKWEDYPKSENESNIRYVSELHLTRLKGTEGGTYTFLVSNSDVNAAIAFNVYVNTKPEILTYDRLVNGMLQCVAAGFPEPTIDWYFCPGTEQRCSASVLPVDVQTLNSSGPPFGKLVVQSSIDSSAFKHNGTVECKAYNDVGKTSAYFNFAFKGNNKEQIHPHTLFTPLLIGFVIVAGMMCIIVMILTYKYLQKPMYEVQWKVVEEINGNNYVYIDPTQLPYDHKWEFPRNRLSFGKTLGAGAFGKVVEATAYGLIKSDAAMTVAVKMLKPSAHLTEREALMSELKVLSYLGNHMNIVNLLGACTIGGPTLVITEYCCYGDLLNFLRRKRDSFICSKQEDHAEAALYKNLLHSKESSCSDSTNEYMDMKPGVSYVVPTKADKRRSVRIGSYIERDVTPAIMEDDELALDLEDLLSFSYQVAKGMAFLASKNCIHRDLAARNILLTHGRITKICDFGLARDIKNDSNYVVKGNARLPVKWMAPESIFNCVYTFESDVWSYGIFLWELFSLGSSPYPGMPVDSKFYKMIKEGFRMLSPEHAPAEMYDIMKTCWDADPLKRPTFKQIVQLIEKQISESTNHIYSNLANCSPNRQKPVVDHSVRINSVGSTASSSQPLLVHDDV
Sequence of UniProt P49761 (whole entry, looked up): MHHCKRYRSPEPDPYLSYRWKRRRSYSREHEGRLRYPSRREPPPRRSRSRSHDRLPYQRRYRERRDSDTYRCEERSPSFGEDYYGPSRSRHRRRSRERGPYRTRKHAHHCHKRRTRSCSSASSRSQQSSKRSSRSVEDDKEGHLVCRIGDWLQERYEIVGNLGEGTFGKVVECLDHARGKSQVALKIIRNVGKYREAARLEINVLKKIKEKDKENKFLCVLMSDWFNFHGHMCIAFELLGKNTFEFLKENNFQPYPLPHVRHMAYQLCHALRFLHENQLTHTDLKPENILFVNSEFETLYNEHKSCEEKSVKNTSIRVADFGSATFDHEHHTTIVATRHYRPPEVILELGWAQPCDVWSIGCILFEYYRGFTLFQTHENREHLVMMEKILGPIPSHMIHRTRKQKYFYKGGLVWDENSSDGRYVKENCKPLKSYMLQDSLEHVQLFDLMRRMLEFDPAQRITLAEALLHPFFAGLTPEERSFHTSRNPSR
Sequence of UniProt Q8NG66 (whole entry, looked up): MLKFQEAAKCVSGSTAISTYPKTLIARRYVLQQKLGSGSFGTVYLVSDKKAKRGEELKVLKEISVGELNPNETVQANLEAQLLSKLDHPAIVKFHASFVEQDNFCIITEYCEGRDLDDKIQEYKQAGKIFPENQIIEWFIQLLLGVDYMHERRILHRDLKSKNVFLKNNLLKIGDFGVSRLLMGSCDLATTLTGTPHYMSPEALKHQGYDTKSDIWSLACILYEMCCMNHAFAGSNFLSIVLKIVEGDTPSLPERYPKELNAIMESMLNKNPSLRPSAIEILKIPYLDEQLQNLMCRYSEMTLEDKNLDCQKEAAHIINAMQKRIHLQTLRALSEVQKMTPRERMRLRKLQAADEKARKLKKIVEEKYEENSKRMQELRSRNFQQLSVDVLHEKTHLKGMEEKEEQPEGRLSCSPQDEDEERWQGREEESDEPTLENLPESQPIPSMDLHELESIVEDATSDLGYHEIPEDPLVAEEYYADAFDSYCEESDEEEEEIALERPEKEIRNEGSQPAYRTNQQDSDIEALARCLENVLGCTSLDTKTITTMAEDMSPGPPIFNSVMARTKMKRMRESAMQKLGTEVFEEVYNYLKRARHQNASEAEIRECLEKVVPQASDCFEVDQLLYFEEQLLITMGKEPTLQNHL

Study 1
Target: Myeloperoxidase (MPO, Homo sapiens, UniProt P05164)
Sequence of UniProt P05164 (whole entry, looked up): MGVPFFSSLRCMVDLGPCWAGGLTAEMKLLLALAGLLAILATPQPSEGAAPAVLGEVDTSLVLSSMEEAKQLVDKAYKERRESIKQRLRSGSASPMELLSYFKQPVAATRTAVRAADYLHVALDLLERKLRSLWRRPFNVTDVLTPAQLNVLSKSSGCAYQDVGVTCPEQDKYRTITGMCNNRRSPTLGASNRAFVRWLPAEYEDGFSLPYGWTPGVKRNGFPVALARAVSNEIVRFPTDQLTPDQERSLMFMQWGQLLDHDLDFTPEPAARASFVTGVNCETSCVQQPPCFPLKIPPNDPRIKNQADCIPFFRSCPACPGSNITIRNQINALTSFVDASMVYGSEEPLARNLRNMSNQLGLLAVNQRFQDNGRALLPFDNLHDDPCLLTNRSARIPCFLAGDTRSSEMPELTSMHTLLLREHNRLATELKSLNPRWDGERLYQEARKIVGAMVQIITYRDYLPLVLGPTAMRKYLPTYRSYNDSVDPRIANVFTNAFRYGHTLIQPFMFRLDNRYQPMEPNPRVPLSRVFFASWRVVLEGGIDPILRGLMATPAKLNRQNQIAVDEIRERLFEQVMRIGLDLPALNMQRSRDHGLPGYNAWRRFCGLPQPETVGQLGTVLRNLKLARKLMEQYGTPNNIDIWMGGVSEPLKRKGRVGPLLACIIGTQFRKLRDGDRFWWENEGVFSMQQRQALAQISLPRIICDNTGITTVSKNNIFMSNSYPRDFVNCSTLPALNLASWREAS
Observed: enzyme activity
Mode: inhibitor
Technique: fluorescence
Measurement: IC50
C=C(CN)COc1cccc(Cn2c(=S)[nH]c(=O)c3[nH]cnc32)c1: 15 nM
NC/C(=C\F)COc1cccc(Cn2c(=S)[nH]c(=O)c3[nH]ccc32)c1: 14 nM
NC/C(=C\F)COc1cccc(Cn2c(=O)[nH]c(=O)c3[nH]cnc32)c1: > 30000 nM
NC/C(=C\F)COc1cc(Cn2c(=S)[nH]c(=O)c3[nH]cnc32)cc(C(F)(F)F)c1: 10 nM
NC/C(=C\F)COc1cc(Cn2c(=S)[nH]c(=O)c3[nH]ccc32)ccc1Cl: 10 nM
Cc1nc2c([nH]1)c(=O)[nH]c(=S)n2Cc1cccc(OC/C(=C/F)CN)c1: 699 nM
NC/C(=C\F)COc1cccc(Cn2c(=S)[nH]c(=O)c3[nH]ccc32)c1F: 10 nM
CS(=O)(=O)c1ccc(OC/C(=C/F)CN)cc1: > 30000 nM

Study 2
SMILES: Cc1c(F)cc2[nH]ncc2c1-c1c(C2CC2)cc2c(N3C[C@@H]4C[C@H]3CN4)nc(OC3CCOCC3)nc2c1OCc1ccccc1
Observed: KRAS-RAF interaction
Mode: inhibitor
Technique: TR-FRET
With: SOS-mediated nucleotide exchange
Measurement: inhibition
KRAS G12D with RAF: GTPase KRas, with RAF (KRAS, Homo sapiens, UniProt P01116, G12D)
KRAS with RAF: GTPase KRas, with RAF (KRAS, Homo sapiens, UniProt P01116)
KRAS G12D with RAF; 100 nM: -2.99% and -4.64%
KRAS with RAF; 10 µM: 5.16% and 15.3%
KRAS G12D with RAF; 1 µM: 3.71% and 2.21%
KRAS G12D with RAF; 10 nM: 0.533% and -5.66%
KRAS with RAF; 300 nM: 6.5% and -3.91%
KRAS with RAF; 30 nM: -4.44% and -4.84%
KRAS with RAF; 3 µM: 2.06% and 0.012%

Study 3
Structure (SMILES): COc1cc(C(=O)OCCCN2CCCN(CCCOC(=O)c3cc(OC)c(OC)c(OCc4ccc([N+](=O)[O-])cc4)c3)CC2)cc(OC)c1OC
Route: intrathecal
Measurement: licking and flinching duration
male mouse, formalin pain; 10 nmol, 10-45 min: 184 s and 245 s and 214 s and 314 s
male mouse, formalin pain; 1 nmol, 0-10 min: 195 s and 281 s and 170 s and 206 s
male mouse, formalin pain; 100 nmol, 0-10 min: 196 s and 195 s and 152 s and 157 s
female mouse, formalin pain; 10 nmol, 10-45 min: 261 s and 133 s and 166 s and 158 s

Study 4
Cell line: HCC1569
Technique: in-cell western
Item: CDK1 phospho-Thr14
Tested at: 123.46 nM
Measurement: pCDK1 (Thr14) level
Cc1ccc(O)c(C)c1-c1cnc2[nH]c(-c3cnc(N4CCC5(CC4)CC(CN4CCN(c6ccc(NC7CCC(=O)NC7=O)cc6F)CC4)C5)nc3)cc2c1C#N (stereo not drawn): 58.6 RLU and 45.9 RLU
Cc1ccc(O)c(C)c1-c1cnc2[nH]c(-c3cnc(N4CCC(CN5CCN(c6ccc7c(c6)CN(C6CCC(=O)NC6=O)C7=O)CC5)CC4)nc3)cc2c1C#N (stereo not drawn): 85.3 RLU and 70.2 RLU
Cc1ncc(-c2cc3c(Cl)c(-c4c(C)ccc(O)c4C)cnc3[nH]2)cn1: 12.3 RLU and 21.9 RLU
Cc1ccc(O)c(C)c1-c1cnc2[nH]c(-c3cnc(N)nc3)cc2c1C#N: 44.1% and 51.2%
Cc1ccc(O)c(C)c1-c1cnc2[nH]c(-c3cnc(N4CCC(CCN5CCN(c6ccc(N7CCC(=O)NC7=O)cc6F)CC5)CC4)nc3)cc2c1C#N: 48.9 RLU and 36.2 RLU
Cc1ncc(-c2cc3c(C(N)=O)c(-c4c(C)ccc(O)c4C)cnc3[nH]2)cn1: 6.27 RLU and 12.4 RLU
Cc1ccc(O)c(C)c1-c1cnc2[nH]c(-c3cnc(N4CCC(CN5CCN(c6ccc7c(c6F)CN(C6CCC(=O)NC6=O)C7=O)CC5)CC4)nc3)cc2c1C#N (stereo not drawn): 74.9 RLU and 87.4 RLU

Study 5
SMILES: CN(C1COC1)C(C)(C)/C=C(\C#N)C(=O)N1CCC[C@H]1Cn1nc(-c2ccc(Oc3ccccc3)cc2F)c2c(N)ncnc21
Observed: kinase activity
Measurement: inhibition
NTRK3 (Homo sapiens, UniProt Q16288); 0.1 µM: 3%
PAK2 (Homo sapiens, UniProt Q13177); 1 µM: 0%
CLK3 (Homo sapiens, UniProt P49761); 1 µM: -3%
5'-AMP-activated protein kinase catalytic subunit alpha-1, with beta1, gamma1 (PRKAA1, Homo sapiens, UniProt Q13131); 0.1 µM: 5%
ROCK1 (Homo sapiens, UniProt Q13464); 1 µM: -6%
MELK (Homo sapiens, UniProt Q14680); 1 µM: 3%
CAMK2A (Homo sapiens, UniProt Q9UQM7); 1 µM: 3%
INSRR (Homo sapiens, UniProt P14616); 0.1 µM: 1%
SYK (Homo sapiens, UniProt P43405); 0.1 µM: -2%
Cyclin-dependent kinase 5, with p25 (CDK5, Homo sapiens, UniProt Q00535); 1 µM: -1%
SPHK2 (Homo sapiens, UniProt Q9NRA0); 0.1 µM: 6%
FRK (Homo sapiens, UniProt P42685); 0.1 µM: 2%
PIM3 (Homo sapiens, UniProt Q86V86); 0.1 µM: 1%
MAPK1 (Homo sapiens, UniProt P28482); 0.1 µM: 1%
SRMS (Homo sapiens, UniProt Q9H3Y6); 0.1 µM: -6%
PLK4 (Homo sapiens, UniProt O00444); 0.1 µM: 3%

Study 6
SMILES: C[C@@H]1CN(c2ccc(-c3cc(C(=O)NCCOCCOCCOCCOCCNC(=O)Cn4cc(-c5[nH]cc(C(=O)N[C@@H](CC(N)=O)c6ccc(F)c(Cl)c6)c5-c5ccc(Cl)cc5F)cn4)ccc3F)cc2NC(=O)c2c[nH]c(=O)cc2C(F)(F)F)C[C@H](C)N1C
Observed: thermal unfolding
Technique: differential scanning fluorimetry
Tested at: 5.5 µM
Direction: higher = more unfolded
Measurement: SYPRO Orange fluorescence
WDR5: WD repeat-containing protein 5 (WDR5, Homo sapiens, UniProt P61964)
DCAF1: DDB1- and CUL4-associated factor 1 (DCAF1, Homo sapiens, UniProt Q9Y4B6)
Sequence of UniProt Q9Y4B6 (whole entry, looked up): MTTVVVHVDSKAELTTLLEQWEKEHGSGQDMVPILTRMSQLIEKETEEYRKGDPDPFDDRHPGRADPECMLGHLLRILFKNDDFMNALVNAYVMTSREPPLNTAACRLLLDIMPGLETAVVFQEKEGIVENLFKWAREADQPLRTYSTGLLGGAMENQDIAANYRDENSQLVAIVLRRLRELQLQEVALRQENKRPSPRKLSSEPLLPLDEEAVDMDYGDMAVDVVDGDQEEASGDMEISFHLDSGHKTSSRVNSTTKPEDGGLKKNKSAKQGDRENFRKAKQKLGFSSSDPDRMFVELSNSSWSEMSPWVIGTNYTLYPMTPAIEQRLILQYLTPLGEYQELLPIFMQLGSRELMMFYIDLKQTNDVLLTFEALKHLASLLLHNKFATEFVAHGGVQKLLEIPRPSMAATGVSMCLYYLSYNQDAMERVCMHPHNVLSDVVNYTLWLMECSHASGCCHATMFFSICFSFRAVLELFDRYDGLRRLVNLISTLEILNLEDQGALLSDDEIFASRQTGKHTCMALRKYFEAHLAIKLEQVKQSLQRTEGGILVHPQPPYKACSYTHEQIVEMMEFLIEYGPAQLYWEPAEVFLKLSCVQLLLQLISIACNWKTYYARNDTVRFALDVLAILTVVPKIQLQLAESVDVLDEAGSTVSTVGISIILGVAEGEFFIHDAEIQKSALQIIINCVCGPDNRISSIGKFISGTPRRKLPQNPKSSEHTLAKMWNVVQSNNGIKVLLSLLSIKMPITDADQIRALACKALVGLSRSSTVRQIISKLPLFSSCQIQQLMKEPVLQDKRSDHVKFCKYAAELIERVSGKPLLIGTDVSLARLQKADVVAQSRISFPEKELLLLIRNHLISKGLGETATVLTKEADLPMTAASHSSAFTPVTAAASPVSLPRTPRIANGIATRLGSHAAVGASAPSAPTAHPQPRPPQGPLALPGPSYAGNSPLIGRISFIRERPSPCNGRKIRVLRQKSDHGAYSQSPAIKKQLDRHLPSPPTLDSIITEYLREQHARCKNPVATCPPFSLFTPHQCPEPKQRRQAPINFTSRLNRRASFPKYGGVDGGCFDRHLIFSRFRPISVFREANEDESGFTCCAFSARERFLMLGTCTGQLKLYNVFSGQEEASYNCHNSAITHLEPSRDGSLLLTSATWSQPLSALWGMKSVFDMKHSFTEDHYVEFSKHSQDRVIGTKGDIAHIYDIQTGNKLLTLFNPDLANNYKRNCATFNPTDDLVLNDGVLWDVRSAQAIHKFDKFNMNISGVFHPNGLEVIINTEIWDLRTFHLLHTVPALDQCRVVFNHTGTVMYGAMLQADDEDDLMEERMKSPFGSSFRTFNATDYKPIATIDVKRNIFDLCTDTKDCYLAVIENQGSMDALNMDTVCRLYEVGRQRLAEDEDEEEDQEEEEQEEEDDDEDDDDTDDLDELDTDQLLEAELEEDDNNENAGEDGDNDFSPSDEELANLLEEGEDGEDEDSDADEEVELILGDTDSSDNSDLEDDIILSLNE
WDR5; 28.6 °C: 14800 a.u.
DCAF1; 33 °C: 8350 a.u.
DCAF1; 61.81 °C: 46900 a.u.
DCAF1; 77.21 °C: 46800 a.u.
DCAF1; 33.2 °C: 8410 a.u.
DCAF1; 68.81 °C: 55500 a.u.
WDR5; 29.8 °C: 15000 a.u.
DCAF1; 56.41 °C: 23000 a.u.
DCAF1; 62.41 °C: 49400 a.u.
DCAF1; 40 °C: 10300 a.u.
DCAF1; 77.01 °C: 47100 a.u.

Study 7
Compound: CC[C@@]1(c2ccccc2)C2=C(CC(C)(C)CC2=O)Nc2n[nH]cc21
Tested at: 1 µM
Measurement: remaining binding
MARK1 (Homo sapiens, UniProt Q9P0L2); binding, competition with immobilised ligand: 93%
MAP2K2 (Homo sapiens, UniProt P36507); kinase binding, KINOMEscan; reference: DMSO control: 83%
MAP2K7 (Homo sapiens, UniProt O14733); binding, competition with immobilised ligand: 91%
MAPK14 (Homo sapiens, UniProt Q16539); kinase binding, KINOMEscan; reference: DMSO control: 100%
NUAK2 (Homo sapiens, UniProt Q9H093); binding, competition with immobilised ligand: 100%
Ribosomal protein S6 kinase alpha-6, C-terminal kinase domain (RPS6KA6, Homo sapiens, UniProt Q9UK32); binding, competition with immobilised ligand: 98%
DSTYK (Homo sapiens, UniProt Q6XUX3); binding, competition with immobilised ligand: 92%
MAPK4 (Homo sapiens, UniProt P31152); binding, competition with immobilised ligand: 100%
PDGFRA (Homo sapiens, UniProt P16234); binding, competition with immobilised ligand: 100%
SNRK (Homo sapiens, UniProt Q9NRH2); kinase binding, KINOMEscan; reference: DMSO control: 86%
EGFR (Homo sapiens, UniProt P00533, del746-750); binding, competition with immobilised ligand: 97%
STK25 (Homo sapiens, UniProt O00506); binding, competition with immobilised ligand: 83%
NEK11 (Homo sapiens, UniProt Q8NG66); binding, competition with immobilised ligand: 76%
PIP4K2B (Homo sapiens, UniProt P78356); kinase binding, KINOMEscan; reference: DMSO control: 100%
BRSK1 (Homo sapiens, UniProt Q8TDC3); binding, competition with immobilised ligand: 92%
STK16 (Homo sapiens, UniProt O75716); binding, competition with immobilised ligand: 91%
CAMK2D (Homo sapiens, UniProt Q13557); kinase binding, KINOMEscan; reference: DMSO control: 94%
NEK10 (Homo sapiens, UniProt Q6ZWH5); binding, competition with immobilised ligand: 100%
Tyrosine-protein kinase ABL1, phosphorylated (ABL1, Homo sapiens, UniProt P00519, H396P); kinase binding, KINOMEscan; reference: DMSO control: 81%
ACVRL1 (Homo sapiens, UniProt P37023); kinase binding, KINOMEscan; reference: DMSO control: 100%
AXL (Homo sapiens, UniProt P30530); binding, competition with immobilised ligand: 100%
DCLK2 (Homo sapiens, UniProt Q8N568); kinase binding, KINOMEscan; reference: DMSO control: 100%
KIT (Homo sapiens, UniProt P10721, D816H); binding, competition with immobilised ligand: 100%

Study 8
SMILES: COc1cc(-c2nc3ccc(C(=O)NCCCN4CCN(c5cccc(C)c5C)CC4)cc3n2C2CCC2)cc(OC)c1OC
Tested at: 1 µM
Measurement: remaining binding
PRKCE (Homo sapiens, UniProt Q02156); binding, competition with immobilised ligand: 100%
Ribosomal protein S6 kinase alpha-1, N-terminal kinase domain (RPS6KA1, Homo sapiens, UniProt Q15418); binding, competition with immobilised ligand: 96%
Tyrosine-protein kinase JAK1, JH2 (JAK1, Homo sapiens, UniProt P23458); binding, competition with immobilised ligand: 88%
BTK (Homo sapiens, UniProt Q06187); binding, competition with immobilised ligand: 94%
MYLK (Homo sapiens, UniProt Q15746); binding, competition with immobilised ligand: 75%
PIK3CA (Homo sapiens, UniProt P42336, H1047Y); binding, competition with immobilised ligand: 79%
SGK1 (Homo sapiens, UniProt O00141); binding, competition with immobilised ligand: 88%
Aurora kinase A (AURKA, Homo sapiens, UniProt O14965); binding, competition with immobilised ligand: 99%
MELK (Homo sapiens, UniProt Q14680); binding, competition with immobilised ligand: 94%
CDC42BPG (Homo sapiens, UniProt Q6DT37); KINOMEscan; reference: control: 93%
PAK1 (Homo sapiens, UniProt Q13153); binding, competition with immobilised ligand: 97%
EGFR (Homo sapiens, UniProt P00533, del746-750); binding, competition with immobilised ligand: 84%
KIT (Homo sapiens, UniProt P10721, V559D/V654A); binding, competition with immobilised ligand: 100%
MAPK13 (Homo sapiens, UniProt O15264); binding, competition with immobilised ligand: 100%
IKBKE (Homo sapiens, UniProt Q14164); binding, competition with immobilised ligand: 71%
DYRK1B (Homo sapiens, UniProt Q9Y463); binding, competition with immobilised ligand: 69%
BUB1 (Homo sapiens, UniProt O43683); binding, competition with immobilised ligand: 85%
BRSK2 (Homo sapiens, UniProt Q8IWQ3); binding, competition with immobilised ligand: 87%

Study 9
Organism: Leishmania donovani
Observed: parasite growth
Cells: THP-1
Setting: intracellular, amastigote
Measurement: IC50
COC(=O)c1cccc(Nc2c3c(nc4ccccc24)CCC3)c1: 7540 nM
COc1cccc(Nc2c3c(nc4ccccc24)CCC3)c1: 7410 nM
CCOc1ccc(Nc2c3c(nc4ccc(Cl)cc24)CCC3)cc1: 3980 nM
Fc1ccc(Nc2c3c(nc4ccccc24)CCC3)cc1: 4500 nM
COc1cc(Nc2c3c(nc4ccccc24)CCC3)cc(OC)c1OC: 8410 nM

Some of these lines once more (study 1):
C=C(CN)COc1cccc(Cn2c(=S)[nH]c(=O)c3[nH]cnc32)c1: 15 nM
Cc1nc2c([nH]1)c(=O)[nH]c(=S)n2Cc1cccc(OC/C(=C/F)CN)c1: 699 nM
CS(=O)(=O)c1ccc(OC/C(=C/F)CN)cc1: > 30000 nM
NC/C(=C\F)COc1cccc(Cn2c(=S)[nH]c(=O)c3[nH]ccc32)c1: 14 nM
NC/C(=C\F)COc1cc(Cn2c(=S)[nH]c(=O)c3[nH]cnc32)cc(C(F)(F)F)c1: 10 nM
NC/C(=C\F)COc1cccc(Cn2c(=O)[nH]c(=O)c3[nH]cnc32)c1: > 30000 nM
NC/C(=C\F)COc1cccc(Cn2c(=S)[nH]c(=O)c3[nH]ccc32)c1F: 10 nM
NC/C(=C\F)COc1cc(Cn2c(=S)[nH]c(=O)c3[nH]ccc32)ccc1Cl: 10 nM
